Measured values gathered from unrelated publications.
Parts stem from different laboratories: compare values within a part only.
Sequence of UniProt P52333 (whole entry, looked up): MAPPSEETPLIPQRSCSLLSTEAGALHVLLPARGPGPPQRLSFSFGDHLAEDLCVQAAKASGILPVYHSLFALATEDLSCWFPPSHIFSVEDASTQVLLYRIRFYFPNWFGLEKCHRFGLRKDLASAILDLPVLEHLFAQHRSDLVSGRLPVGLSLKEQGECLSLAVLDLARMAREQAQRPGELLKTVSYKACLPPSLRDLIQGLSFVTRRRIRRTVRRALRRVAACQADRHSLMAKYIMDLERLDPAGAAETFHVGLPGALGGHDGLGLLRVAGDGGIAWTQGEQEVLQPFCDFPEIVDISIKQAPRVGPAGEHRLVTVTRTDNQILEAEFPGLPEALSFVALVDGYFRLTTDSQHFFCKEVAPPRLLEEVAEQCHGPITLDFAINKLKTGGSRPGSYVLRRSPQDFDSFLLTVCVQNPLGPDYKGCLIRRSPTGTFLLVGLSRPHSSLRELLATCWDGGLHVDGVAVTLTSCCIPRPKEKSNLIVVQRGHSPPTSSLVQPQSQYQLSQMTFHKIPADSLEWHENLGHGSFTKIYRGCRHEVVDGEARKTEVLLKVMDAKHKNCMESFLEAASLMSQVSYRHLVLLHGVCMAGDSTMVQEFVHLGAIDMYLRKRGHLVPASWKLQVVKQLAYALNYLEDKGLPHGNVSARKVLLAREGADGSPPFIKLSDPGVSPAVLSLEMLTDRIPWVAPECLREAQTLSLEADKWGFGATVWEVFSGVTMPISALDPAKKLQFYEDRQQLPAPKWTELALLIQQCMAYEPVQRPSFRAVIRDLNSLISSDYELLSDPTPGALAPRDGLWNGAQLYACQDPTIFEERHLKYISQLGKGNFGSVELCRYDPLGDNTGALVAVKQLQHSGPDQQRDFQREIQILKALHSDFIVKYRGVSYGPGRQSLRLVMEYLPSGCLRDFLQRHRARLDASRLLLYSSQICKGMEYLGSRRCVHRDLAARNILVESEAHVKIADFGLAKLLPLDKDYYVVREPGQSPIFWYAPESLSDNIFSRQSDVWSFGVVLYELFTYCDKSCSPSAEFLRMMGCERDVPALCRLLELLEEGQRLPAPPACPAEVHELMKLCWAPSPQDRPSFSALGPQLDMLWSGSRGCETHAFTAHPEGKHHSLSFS
Sequence of UniProt P20309 (whole entry, looked up): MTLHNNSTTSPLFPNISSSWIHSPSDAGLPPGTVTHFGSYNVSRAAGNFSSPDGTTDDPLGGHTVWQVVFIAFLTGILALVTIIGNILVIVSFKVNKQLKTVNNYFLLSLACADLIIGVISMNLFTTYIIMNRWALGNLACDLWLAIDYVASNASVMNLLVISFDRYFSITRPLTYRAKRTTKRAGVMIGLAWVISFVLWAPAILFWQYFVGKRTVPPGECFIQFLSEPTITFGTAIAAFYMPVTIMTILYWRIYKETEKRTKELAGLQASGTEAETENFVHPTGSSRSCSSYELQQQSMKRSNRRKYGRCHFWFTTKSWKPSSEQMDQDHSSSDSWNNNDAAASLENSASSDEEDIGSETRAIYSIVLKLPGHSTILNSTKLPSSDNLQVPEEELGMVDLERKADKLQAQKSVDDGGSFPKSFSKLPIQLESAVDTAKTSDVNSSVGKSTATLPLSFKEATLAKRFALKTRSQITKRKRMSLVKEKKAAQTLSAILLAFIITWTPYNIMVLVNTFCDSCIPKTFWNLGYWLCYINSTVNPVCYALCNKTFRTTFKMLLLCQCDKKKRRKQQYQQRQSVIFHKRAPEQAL
Sequence of UniProt Q5UAW9 (whole entry, looked up): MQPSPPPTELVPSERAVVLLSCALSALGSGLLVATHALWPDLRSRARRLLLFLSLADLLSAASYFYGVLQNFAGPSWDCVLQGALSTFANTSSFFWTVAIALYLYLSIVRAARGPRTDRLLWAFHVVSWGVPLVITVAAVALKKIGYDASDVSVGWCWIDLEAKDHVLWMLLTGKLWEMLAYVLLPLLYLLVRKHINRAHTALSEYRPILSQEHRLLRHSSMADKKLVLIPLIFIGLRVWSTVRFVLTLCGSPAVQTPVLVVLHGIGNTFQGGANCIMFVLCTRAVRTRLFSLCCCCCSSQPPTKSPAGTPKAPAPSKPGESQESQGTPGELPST
Sequence of UniProt P17948 (whole entry, looked up): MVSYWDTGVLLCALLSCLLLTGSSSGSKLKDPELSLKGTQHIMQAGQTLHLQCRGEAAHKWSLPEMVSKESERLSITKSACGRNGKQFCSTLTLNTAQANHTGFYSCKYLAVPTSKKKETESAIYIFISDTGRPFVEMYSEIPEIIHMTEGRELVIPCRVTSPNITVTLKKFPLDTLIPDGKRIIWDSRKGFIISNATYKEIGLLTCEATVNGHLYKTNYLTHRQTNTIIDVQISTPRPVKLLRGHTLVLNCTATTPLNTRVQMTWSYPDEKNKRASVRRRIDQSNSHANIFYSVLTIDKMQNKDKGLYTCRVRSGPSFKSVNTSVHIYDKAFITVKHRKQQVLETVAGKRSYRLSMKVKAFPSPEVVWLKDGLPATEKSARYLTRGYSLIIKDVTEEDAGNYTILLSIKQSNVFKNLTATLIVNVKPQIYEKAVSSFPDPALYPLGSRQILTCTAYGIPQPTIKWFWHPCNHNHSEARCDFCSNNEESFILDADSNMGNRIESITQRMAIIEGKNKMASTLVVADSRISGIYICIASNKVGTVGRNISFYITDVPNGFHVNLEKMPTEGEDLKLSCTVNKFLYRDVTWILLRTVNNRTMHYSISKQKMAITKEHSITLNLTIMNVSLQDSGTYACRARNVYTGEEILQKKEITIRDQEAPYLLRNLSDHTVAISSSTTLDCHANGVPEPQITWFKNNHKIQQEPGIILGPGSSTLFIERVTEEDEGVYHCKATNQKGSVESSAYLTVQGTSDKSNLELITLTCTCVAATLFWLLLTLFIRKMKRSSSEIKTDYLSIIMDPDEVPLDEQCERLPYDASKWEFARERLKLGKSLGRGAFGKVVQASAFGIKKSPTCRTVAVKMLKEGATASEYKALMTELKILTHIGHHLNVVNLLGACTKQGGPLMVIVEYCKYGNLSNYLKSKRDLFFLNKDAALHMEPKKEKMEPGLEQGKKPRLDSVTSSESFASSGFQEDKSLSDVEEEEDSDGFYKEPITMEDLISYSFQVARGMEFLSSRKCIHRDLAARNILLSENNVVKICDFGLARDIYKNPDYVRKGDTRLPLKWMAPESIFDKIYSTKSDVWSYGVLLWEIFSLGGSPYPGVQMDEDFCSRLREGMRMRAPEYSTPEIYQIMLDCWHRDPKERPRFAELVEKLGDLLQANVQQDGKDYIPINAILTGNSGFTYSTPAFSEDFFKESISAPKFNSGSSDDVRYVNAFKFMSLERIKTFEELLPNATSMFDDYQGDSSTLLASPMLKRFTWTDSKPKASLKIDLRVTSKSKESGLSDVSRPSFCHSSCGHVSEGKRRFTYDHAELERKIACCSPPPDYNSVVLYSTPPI
Sequence of UniProt Q12866 (whole entry, looked up): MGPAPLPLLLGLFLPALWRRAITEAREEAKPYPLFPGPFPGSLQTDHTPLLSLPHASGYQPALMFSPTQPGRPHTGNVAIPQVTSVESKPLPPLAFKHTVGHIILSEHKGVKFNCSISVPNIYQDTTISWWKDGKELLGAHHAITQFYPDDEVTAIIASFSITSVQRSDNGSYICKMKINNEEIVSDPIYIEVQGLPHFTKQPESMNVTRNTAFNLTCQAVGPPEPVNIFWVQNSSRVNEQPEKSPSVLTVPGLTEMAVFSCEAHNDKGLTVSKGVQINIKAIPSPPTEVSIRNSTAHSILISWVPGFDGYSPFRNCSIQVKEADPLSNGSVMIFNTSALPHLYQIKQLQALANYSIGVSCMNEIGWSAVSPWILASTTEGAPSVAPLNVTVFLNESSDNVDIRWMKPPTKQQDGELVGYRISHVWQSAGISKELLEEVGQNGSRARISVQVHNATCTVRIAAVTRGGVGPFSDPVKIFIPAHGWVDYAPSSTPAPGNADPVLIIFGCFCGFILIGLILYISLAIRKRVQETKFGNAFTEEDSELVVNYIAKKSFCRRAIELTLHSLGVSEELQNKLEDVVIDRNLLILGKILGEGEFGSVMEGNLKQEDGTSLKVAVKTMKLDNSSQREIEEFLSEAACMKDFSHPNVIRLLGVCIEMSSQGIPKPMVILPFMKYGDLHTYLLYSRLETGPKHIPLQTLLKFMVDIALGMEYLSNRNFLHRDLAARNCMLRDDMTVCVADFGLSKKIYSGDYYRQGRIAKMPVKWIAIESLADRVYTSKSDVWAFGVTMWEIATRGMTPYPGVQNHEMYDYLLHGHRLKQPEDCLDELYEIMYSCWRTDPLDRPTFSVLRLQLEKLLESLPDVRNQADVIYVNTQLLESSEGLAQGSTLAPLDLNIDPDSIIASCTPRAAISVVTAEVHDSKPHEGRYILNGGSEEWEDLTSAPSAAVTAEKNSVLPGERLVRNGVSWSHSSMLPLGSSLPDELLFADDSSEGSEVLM

Set 1 — effect on: enzyme activity; mode: inhibitor; concentration: 10 µM
Target: Calcium/calmodulin-dependent protein kinase type II subunit alpha (CAMK2A, Homo sapiens, UniProt Q9UQM7)
Sequence of UniProt Q9UQM7 (whole entry, looked up): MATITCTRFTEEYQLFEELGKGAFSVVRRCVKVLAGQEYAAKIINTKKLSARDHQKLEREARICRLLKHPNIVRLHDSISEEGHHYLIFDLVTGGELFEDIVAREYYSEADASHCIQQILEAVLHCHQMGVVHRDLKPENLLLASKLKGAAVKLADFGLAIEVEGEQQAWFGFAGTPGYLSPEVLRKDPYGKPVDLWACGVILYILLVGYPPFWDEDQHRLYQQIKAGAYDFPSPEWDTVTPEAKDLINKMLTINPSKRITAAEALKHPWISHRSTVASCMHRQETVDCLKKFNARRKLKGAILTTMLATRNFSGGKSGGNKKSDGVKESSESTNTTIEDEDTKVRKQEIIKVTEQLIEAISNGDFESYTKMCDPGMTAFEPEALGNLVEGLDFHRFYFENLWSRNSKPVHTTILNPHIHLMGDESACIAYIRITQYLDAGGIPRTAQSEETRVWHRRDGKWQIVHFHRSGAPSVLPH
The inhibition of `COc1c(C)c(O)cc2[o+]c(-c3ccccc3)ccc12` is reported as -18%.
`CN1[C@@H]2CCC[C@H]1C[C@@H](NC(=O)c1nn(C)c3ccccc13)C2` gave an inhibition of 8%.
For `CCCCC/C=C/C(=O)CCc1ccc(O)c(OC)c1`, the inhibition was -12%.
The inhibition of `CN1C(C(=O)Nc2ccccn2)=C(O)c2ccccc2S1(=O)=O` is reported as 2%.
For `CC(C)c1nc(CN(C)C(=O)N[C@@H](CCN2CCOCC2)C(=O)N[C@H](CC[C@H](Cc2ccccc2)NC(=O)OCc2cncs2)Cc2ccccc2)cs1`, the inhibition was 5%.
The inhibition of `COc1cc(-c2coc3cc4c(c(O)c3c2=O)OCO4)cc(O)c1OC` is reported as 9%.
`CCOC(=O)C1=C(C)NC(C)=C(C(=O)OCC)C1c1ccccc1/C=C/C(=O)OC(C)(C)C` gave an inhibition of -5%.
The inhibition of `COC(=O)[C@]12CCC(C)(C)C[C@H]1C1=CC[C@@H]3[C@@]4(C)CCC(=O)C(C)(C)[C@@H]4CC[C@@]3(C)[C@]1(C)CC2` is reported as -7%.
With `CC(C)=CCC[C@](C)(O)[C@H]1CC[C@]2(C)[C@@H]1[C@H](O)C[C@@H]1[C@@]3(C)CC[C@H](O)C(C)(C)[C@@H]3[C@@H](O[C@@H]3O[C@H](CO)[C@@H](O)[C@H](O)[C@H]3O[C@@H]3OC[C@@H](O)[C@H](O)[C@H]3O)C[C@]12C` the inhibition was -55%.
`C[C@@H]1O[C@@H](O[C@@H]2[C@@H](O)[C@H](OCCc3ccc(O)c(O)c3)O[C@H](CO)[C@H]2OC(=O)/C=C/c2ccc(O)c(O)c2)[C@H](O)[C@H](O)[C@H]1O` gave an inhibition of -16%.
The inhibition of `CC(=O)O[C@@H]1C[C@@]23C[C@@]24CC[C@H](O[C@@H]2OC[C@@H](O)[C@H](O)[C@H]2O)C(C)(C)[C@@H]4CC[C@H]3[C@]2(C)C[C@@H]3O[C@]4(C[C@@H](C)[C@@H]3[C@@]12C)OC[C@@]1(C)O[C@@H]41` is reported as -4%.
The inhibition of `O=c1c(O)c(-c2ccc(O)cc2)oc2cc(O)ccc12` is reported as 57%.

Set 2 — Structure (SMILES): CCOc1nc(NC(=O)Cc2cc(OC)ccc2OC)cc(N)c1C#N; effect on: enzyme activity; mode: inhibitor; concentration: 0.5 µM; relative to: control
It gave 94.7% for remaining activity (Ephrin type-A receptor 3 (EPHA3, Homo sapiens, UniProt P29320)).
The remaining activity was 114% (Rhodopsin kinase GRK7 (GRK7, Homo sapiens, UniProt Q8WTQ7)).
It gave 98.5% for remaining activity (Activin receptor type-1B (ACVR1B, Homo sapiens, UniProt P36896)).
It gave 101% for remaining activity (Glycogen synthase kinase-3 beta (GSK3B, Homo sapiens, UniProt P49841)).
For Casein kinase I isoform gamma-3 (CSNK1G3, Homo sapiens, UniProt Q9Y6M4): remaining activity read 105%.
It gave 98.8% for remaining activity (Ribosomal protein S6 kinase alpha-2 (RPS6KA2, Homo sapiens, UniProt Q15349)).
Tyrosine-protein kinase JAK3 (JAK3, Homo sapiens, UniProt P52333) — remaining activity: 99.1%.
It gave 108% for remaining activity (Mitogen-activated protein kinase kinase kinase 14 (MAP3K14, Homo sapiens, UniProt Q99558)).
For Angiopoietin-1 receptor (TEK, Homo sapiens, UniProt Q02763): remaining activity read 101%.
The remaining activity was 95% (Macrophage-stimulating protein receptor (MST1R, Homo sapiens, UniProt Q04912)).
For Tyrosine-protein kinase FRK (FRK, Homo sapiens, UniProt P42685): remaining activity read 103%.
The remaining activity was 103% (MAP kinase-activated protein kinase 2 (MAPKAPK2, Homo sapiens, UniProt P49137)).
Tyrosine-protein kinase Lck (LCK, Homo sapiens, UniProt P06239) — remaining activity: 102%.

Set 3 — effect on: cell-free assay; method: competition with immobilised ligand; concentration: 1 µM
Compound: CCC(=O)N[C@@H]1CC[C@H](C(=O)N(C)c2ccc(-c3nc4ccccc4o3)cc2)C1
Serine/threonine-protein kinase 38-like (STK38L, Homo sapiens, UniProt Q9Y2H1) — remaining binding: 100%.
The remaining binding was 96% (Activin receptor type-2B (ACVR2B, Homo sapiens, UniProt Q13705)).
The remaining binding was 98% (Tyrosine-protein kinase JAK3, JH1 (JAK3, Homo sapiens, UniProt P52333)).
For Receptor-type tyrosine-protein kinase FLT3 (FLT3, Homo sapiens, UniProt P36888, D835V/ITD): remaining binding read 94%.
The remaining binding was 100% (Receptor-type tyrosine-protein kinase FLT3 (FLT3, Homo sapiens, UniProt P36888, K663Q)).
It gave 89% for remaining binding (Serine/threonine-protein kinase 10 (STK10, Homo sapiens, UniProt O94804)).
For Mitogen-activated protein kinase kinase kinase 19 (MAP3K19, Homo sapiens, UniProt Q56UN5): remaining binding read 92%.
It gave 93% for remaining binding (Dual serine/threonine and tyrosine protein kinase (DSTYK, Homo sapiens, UniProt Q6XUX3)).
It gave 88% for remaining binding (Eukaryotic translation initiation factor 2-alpha kinase 1 (EIF2AK1, Homo sapiens, UniProt Q9BQI3)).
Mitogen-activated protein kinase kinase kinase 12 (MAP3K12, Homo sapiens, UniProt Q12852) — remaining binding: 100%.
For Tyrosine-protein kinase Mer (MERTK, Homo sapiens, UniProt Q12866): remaining binding read 100%.
The remaining binding was 69% (Serine/threonine-protein kinase LATS2 (LATS2, Homo sapiens, UniProt Q9NRM7)).
Vascular endothelial growth factor receptor 1 (FLT1, Homo sapiens, UniProt P17948) — remaining binding: 100%.
For Misshapen-like kinase 1 (MINK1, Homo sapiens, UniProt Q8N4C8): remaining binding read 96%.
The remaining binding was 100% (Serine/threonine-protein kinase OSR1 (OXSR1, Homo sapiens, UniProt O95747)).

Set 4 — effect on: β-arrestin recruitment; mode: agonist; method: PRESTO-Tango; concentration: 10 µM; relative to: untreated
Compound: N=C(N)NC(=O)c1cnn(-c2cccc3ncccc23)c1C1CC1
The “fold over basal” was 0.65 (5-hydroxytryptamine receptor 6 (HTR6, Homo sapiens, UniProt P50406)).
G-protein coupled receptor 157 (GPR157, Homo sapiens, UniProt Q5UAW9) — “fold over basal”: 0.83.
Muscarinic acetylcholine receptor M3 (CHRM3, Homo sapiens, UniProt P20309) — “fold over basal”: 0.75.
It gave 1.25 for “fold over basal” (Proteinase-activated receptor 3 (F2RL2, Homo sapiens, UniProt O00254)).
For Probable G-protein coupled receptor 153 (GPR153, Homo sapiens, UniProt Q6NV75): “fold over basal” read 1.16.
The “fold over basal” was 0.64 (C-X-C chemokine receptor type 4 (CXCR4, Homo sapiens, UniProt P61073)).
It gave 2.14 for “fold over basal” (D(3) dopamine receptor (DRD3, Homo sapiens, UniProt P35462)).
It gave 2.02 for “fold over basal” (Prostaglandin D2 receptor (PTGDR, Homo sapiens, UniProt Q13258)).
For Gamma-aminobutyric acid type B receptor subunit 1 (GABBR1, Homo sapiens, UniProt Q9UBS5): “fold over basal” read 0.96 fold.
The “fold over basal” was 1 (Leukotriene B4 receptor 2, isoform b (LTB4R2, Homo sapiens, UniProt Q9NPC1)).
5-hydroxytryptamine receptor 1E (HTR1E, Homo sapiens, UniProt P28566) — “fold over basal”: 1.14.
The “fold over basal” was 1.01 (Somatostatin receptor type 1 (SSTR1, Homo sapiens, UniProt P30872)).
Lysophosphatidic acid receptor 4 (LPAR4, Homo sapiens, UniProt Q99677) — “fold over basal”: 1.16.
Sphingosine 1-phosphate receptor 4 (S1PR4, Homo sapiens, UniProt O95977) — “fold over basal”: 1.12.
Neuropeptide Y receptor type 2 (NPY2R, Homo sapiens, UniProt P49146) — “fold over basal”: 0.67.
It gave 1.72 fold for “fold over basal” (Kappa-type opioid receptor (OPRK1, Homo sapiens, UniProt P41145)).
It gave 0.94 fold for “fold over basal” (Galanin receptor type 2 (GALR2, Homo sapiens, UniProt O43603)).
For Glucagon-like peptide 2 receptor (GLP2R, Homo sapiens, UniProt O95838): “fold over basal” read 0.58 fold.

Some of these lines once more (set 4):
The “fold over basal” was 0.64 (C-X-C chemokine receptor type 4 (CXCR4, Homo sapiens, UniProt P61073)).
It gave 2.14 for “fold over basal” (D(3) dopamine receptor (DRD3, Homo sapiens, UniProt P35462)).
It gave 2.02 for “fold over basal” (Prostaglandin D2 receptor (PTGDR, Homo sapiens, UniProt Q13258)).
For Gamma-aminobutyric acid type B receptor subunit 1 (GABBR1, Homo sapiens, UniProt Q9UBS5): “fold over basal” read 0.96 fold.
The “fold over basal” was 1 (Leukotriene B4 receptor 2, isoform b (LTB4R2, Homo sapiens, UniProt Q9NPC1)).
5-hydroxytryptamine receptor 1E (HTR1E, Homo sapiens, UniProt P28566) — “fold over basal”: 1.14.
The “fold over basal” was 1.01 (Somatostatin receptor type 1 (SSTR1, Homo sapiens, UniProt P30872)).
